Published values collected from several papers.
A part holds a random share of what one study measured. Positions count from the first letter of the parent shown.

Sample 1 — target: CCNF, cyclin fold, Cln2 fusion (human); technique: yeast growth competition, sequencing; sample: yeast; notes: strong parent motif; relative to: not given; reading: higher = stronger binding; measurement: normalised enrichment score
Starting sequence: E2F2 docking peptide (human); LPAKRKLDLEGIG
Change = L9F; result = 6.94
Change = R5K; result = 3.03
Change = L9A; result = 0.862
Change = L1A; result = 6.66
Change = R5A L7A; result = 0.366
Change = P2A; result = 7.98
Change = D8A; result = 4.51
Change = K4A; result = 7.05
Change = L7A; result = 1.34

Sample 2 — technique: RNA Bind-n-Seq; molecule type: RNA; sample: in vitro; tested at: 200 nM; notes: whole 134-nt RNA, ends assumed; added: 150 mM KCl; relative to: input library; reading: higher = stronger binding; measurement: log2 enrichment
Target: Fragile X messenger ribonucleoprotein 1, C-terminal low-complexity region (Fmr1, Mus musculus, UniProt P35922)
Oligonucleotide = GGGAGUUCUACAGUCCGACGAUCUGGGAGGUGGAUUUUGUUUAUUUUUUUAGCUCAUUUCCAGGGGUGGGAAUUUUUUUUUAAUAUGCGUCAUGAAUAAAGUUGUUUUUGAAAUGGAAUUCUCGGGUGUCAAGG; result = 0.0603
Oligonucleotide = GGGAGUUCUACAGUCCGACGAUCCCUGUGCUACACAUCGUAUGUACCGAAUCGGCCCCCCCGGCCCCCCCGGGCCCCCCCGGGAAAGUAUUAUGUUACGCCGUUCGGAUCUGCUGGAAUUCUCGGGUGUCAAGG; result = 0.0847
Oligonucleotide = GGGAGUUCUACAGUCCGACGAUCGUCCUGUGCUACACAUCGUAUGUACCGAAUCAAACCCCCCCAAACCCCCAAAUUUAAAAAAGUAUUAUGUUACGCCGUUCGGAUCUGCACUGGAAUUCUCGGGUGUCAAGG; result = -0.168
Oligonucleotide = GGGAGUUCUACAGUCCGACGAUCUUUCUCCAAGGACAUCAAGGUGCCCAAGAGCCGCUACCUGGGCUACAUCAAGGACUACGAGGGAGCGACGCUGAUGGAGUGUGAGCUGAAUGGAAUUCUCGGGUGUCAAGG; result = -1.18
Oligonucleotide = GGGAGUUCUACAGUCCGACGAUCCUGUGCUACACAUCGUAUGUACCGAAUCGGGGUUUUUUUGGGUUUUUUUGGGUUUUUUUGGAAAGUAUUAUGUUACGCCGUUCGGAUCUGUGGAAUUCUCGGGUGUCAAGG; result = -0.637
Oligonucleotide = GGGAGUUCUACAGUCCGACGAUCGUCCUGUGCUACACAUCGUAUGUACCGAAUCAAAUUUAAACCCCCCCAAAUUUUUAAAAAAGUAUUAUGUUACGCCGUUCGGAUCUGCACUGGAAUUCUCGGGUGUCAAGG; result = 0.327
Oligonucleotide = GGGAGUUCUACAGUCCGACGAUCUGUGCUACACAUCGUAUGUACCGAAUCGGGGAAAAAAAGGAAAAAAAGGGGAAAAAAAGGGGAAAGUAUUAUGUUACGCCGUUCGGAUCUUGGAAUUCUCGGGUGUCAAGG; result = -0.131
Oligonucleotide = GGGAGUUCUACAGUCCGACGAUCUCAAGUCCUGUGCUACACAUCGUAUGUACCGAAUCGGUUUGGUUUGGUUUUUGGAAAGUAUUAUGUUACGCCGUUCGGAUCUGCACUUCCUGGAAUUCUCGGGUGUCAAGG; result = -0.454
Oligonucleotide = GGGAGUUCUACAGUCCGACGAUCUCCUGUGCUACACAUCGUAUGUACCGAAUCGGGGUUUUUGGUUUUUGGGGUUUUUGGGGAAAGUAUUAUGUUACGCCGUUCGGAUCUGCAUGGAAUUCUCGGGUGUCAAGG; result = 0.271
Oligonucleotide = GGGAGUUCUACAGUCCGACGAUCUCCUUUGUGUUUACAAAAGCACUGACCCUUUACCUUUUCUUUAGCAAGAAGAAUGGAAUGAACAUAAUGCCAAAAUAAUUAAAUAUAUAAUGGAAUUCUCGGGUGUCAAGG; result = 1.14
Oligonucleotide = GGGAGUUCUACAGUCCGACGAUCCCUGUGCUACACAUCGUAUGUACCGAAUCGGCCCCCCCGGGCCCCCCCGGGCCCCCCCGGGAAAGUAUUAUGUUACGCCGUUCGGAUCUGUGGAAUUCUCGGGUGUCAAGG; result = -0.811
Oligonucleotide = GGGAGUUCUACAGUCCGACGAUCUCUCUCUCUUUCCCUCUAGGGUCACAUCUCCCAGGAAGAUCUCACUUCCCCACAGAAGCUCUUGGCCUGGCCUCCUGCAGUGCCACGCUCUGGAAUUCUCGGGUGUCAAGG; result = 0.805
Oligonucleotide = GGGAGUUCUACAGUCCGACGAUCUGGAGGAGCCAUAGAAUAUUAAGGAUGAAUUCAGGAAGGCCUGAGACCAUGGAAAACUUGCCUGCUCUCUACACUAUUUUCCAAGGAGAGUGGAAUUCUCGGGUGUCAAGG; result = -0.747
Oligonucleotide = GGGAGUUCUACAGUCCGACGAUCGCAGGAAGUAAAAACAAAUGGAAAUGCCUCGGAUAGUGGCAGGGGUGGGGGUUGCUAAGGAAAGGGUGGGAUGGGAGUGGGUAAAGAGUUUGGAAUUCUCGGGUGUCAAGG; result = 0.348

Sample 3 — target: FOSB, bZIP domain (human); technique: DHFR protein complementation; sample: yeast; relative to: wild-type JUN-FOS pair; reading: higher = stronger binding; measurement: binding fitness
Notes: single substitutions, most at no-binding floor
Starting sequence: JUN, bZIP domain (human); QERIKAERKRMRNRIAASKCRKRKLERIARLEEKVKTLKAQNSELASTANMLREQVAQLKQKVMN
Change = E32P; result = -1.23 natural log
Change = L38K; result = -1.21 natural log
Change = T37P; result = -1.22 natural log
Change = L38S; result = -1.21 natural log
Change = L38W; result = -1.35 natural log
Change = L52G; result = -1.47 natural log

Sample 4 — technique: DHFR PCA, deep sequencing; sample: yeast; added: (+)-ABA 0.11 µM; relative to: wild-type fitted maximum; reading: higher = stronger binding; measurement: relative binding score
Target: ABI1, truncated, D143A, DHFR fusion (Arabidopsis thaliana)
Notes: methotrexate growth selection, single substitutions
Starting sequence: PYL1, truncated, DHFR fusion (Arabidopsis thaliana); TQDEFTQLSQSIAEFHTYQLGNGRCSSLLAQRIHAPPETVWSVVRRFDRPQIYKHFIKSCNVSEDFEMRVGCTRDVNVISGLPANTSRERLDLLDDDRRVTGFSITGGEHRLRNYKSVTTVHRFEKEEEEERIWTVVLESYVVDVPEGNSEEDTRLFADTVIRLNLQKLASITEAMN
Change = E14G; result = 0.799%
Change = Q7M; result = 29.6%
Change = E152K; result = 8.86%
Change = R113G; result = 3.28%
Change = L82C; result = 16.3%
Change = E152V; result = 10.3%
Change = W41G; result = 0.643%
Change = H34C; result = 40%
Change = I172C; result = -4.03%
Change = R113T; result = 19.8%
Change = V142I; result = 38.3%
Change = S59D; result = 33.6%
Change = L138C; result = -1.03%
Change = E130L; result = 11.5%
Change = P146I; result = 17.9%
Change = R69M; result = 16.6%
Change = Y115I; result = 4.32%
Change = D159M; result = -17.8%
Change = R155D; result = -11.1%
Change = R113V; result = 33.4%

Sample 5 — technique: universal PBM; molecule type: double-stranded DNA, one strand shown; sample: in vitro; tested at: 600 nM; reading: higher = stronger binding; measurement: E-score
Target: Sal-like protein 4, full length isoform A (SALL4, Homo sapiens, UniProt Q9UJQ4, residues 1-1053)
Sequence of UniProt Q9UJQ4 (whole entry, looked up): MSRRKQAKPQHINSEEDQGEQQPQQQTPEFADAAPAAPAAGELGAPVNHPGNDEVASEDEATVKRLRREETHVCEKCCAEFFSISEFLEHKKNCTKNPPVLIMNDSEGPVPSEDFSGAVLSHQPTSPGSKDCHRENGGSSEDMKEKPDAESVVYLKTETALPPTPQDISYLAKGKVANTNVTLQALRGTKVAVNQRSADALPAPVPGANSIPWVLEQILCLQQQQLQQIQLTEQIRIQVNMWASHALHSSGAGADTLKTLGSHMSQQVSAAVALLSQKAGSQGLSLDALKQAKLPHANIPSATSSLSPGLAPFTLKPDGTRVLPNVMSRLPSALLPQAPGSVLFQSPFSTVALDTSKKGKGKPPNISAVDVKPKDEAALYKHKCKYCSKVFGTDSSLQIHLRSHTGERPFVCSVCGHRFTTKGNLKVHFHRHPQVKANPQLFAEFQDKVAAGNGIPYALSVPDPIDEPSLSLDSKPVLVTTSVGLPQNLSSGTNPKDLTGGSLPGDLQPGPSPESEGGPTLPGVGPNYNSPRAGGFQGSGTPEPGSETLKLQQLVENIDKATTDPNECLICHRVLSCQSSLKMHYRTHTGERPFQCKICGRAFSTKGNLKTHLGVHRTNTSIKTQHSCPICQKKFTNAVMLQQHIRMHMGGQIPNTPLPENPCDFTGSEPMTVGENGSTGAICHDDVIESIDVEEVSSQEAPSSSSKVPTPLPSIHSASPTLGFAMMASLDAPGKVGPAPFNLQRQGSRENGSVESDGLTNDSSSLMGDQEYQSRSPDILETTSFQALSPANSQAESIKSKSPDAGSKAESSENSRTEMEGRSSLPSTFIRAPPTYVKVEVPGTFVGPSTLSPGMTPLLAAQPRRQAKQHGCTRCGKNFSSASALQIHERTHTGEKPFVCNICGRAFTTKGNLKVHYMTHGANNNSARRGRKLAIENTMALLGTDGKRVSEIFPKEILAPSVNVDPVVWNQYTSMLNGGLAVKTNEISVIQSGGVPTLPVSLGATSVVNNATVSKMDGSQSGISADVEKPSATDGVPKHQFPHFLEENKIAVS
Notes: 8-mer, flanks averaged, mean of replicates
Oligonucleotide = TCCTACAA; result = 0.141
Oligonucleotide = ACTCGTAC; result = -0.0294
Oligonucleotide = GATTGTGA; result = 0.182
Oligonucleotide = TCAAAGGA; result = 0.1
Oligonucleotide = AATGTCGG; result = 0.0135
Oligonucleotide = AGGGACGA; result = -0.125
Oligonucleotide = CGTCTGCC; result = -0.226
Oligonucleotide = GTGGAGTA; result = 0.0857
Oligonucleotide = AGGCACGG; result = -0.166
Oligonucleotide = GTGTCACA; result = 0.0341
Oligonucleotide = GGAAAACC; result = -0.139
Oligonucleotide = GAATAGTA; result = 0.278
Oligonucleotide = ATATTCTG; result = 0.219
Oligonucleotide = CGGGCACG; result = -0.275
Oligonucleotide = CAAGATTA; result = 0.181
Oligonucleotide = GCTCGAAC; result = -0.124
Oligonucleotide = ACCAATCG; result = 0.0762
Oligonucleotide = CTCAATCC; result = 0.00672
Oligonucleotide = GCAACAAA; result = 0.0975
Oligonucleotide = AAAGATGA; result = 0.251
Oligonucleotide = TAGGTTCA; result = 0.0277
Oligonucleotide = GGATGCAC; result = -0.162
Oligonucleotide = GTCGGGGA; result = -0.327
Oligonucleotide = ATGATAGA; result = 0.146
Oligonucleotide = CTAATTTA; result = 0.309

Sample 6 — technique: RNA Bind-n-Seq; molecule type: RNA; sample: in vitro; tested at: not given; relative to: input RNA pool; reading: higher = stronger binding; measurement: bound/input enrichment
Target: RING finger protein unkempt homolog, zinc fingers 1-6, GST-SBP tag (UNK, Homo sapiens, UniProt Q9C0B0, residues 30-357)
Notes: RNA with constant flanks, human-mouse chimeric sites, ends assumed
Residues (chain): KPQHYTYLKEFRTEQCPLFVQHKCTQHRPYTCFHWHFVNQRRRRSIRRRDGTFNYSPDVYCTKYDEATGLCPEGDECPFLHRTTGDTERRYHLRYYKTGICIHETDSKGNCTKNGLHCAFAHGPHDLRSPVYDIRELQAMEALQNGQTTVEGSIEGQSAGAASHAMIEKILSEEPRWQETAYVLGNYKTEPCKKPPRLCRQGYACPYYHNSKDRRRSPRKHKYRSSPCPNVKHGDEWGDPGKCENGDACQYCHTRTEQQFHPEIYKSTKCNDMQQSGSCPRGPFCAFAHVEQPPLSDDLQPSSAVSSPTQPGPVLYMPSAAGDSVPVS
Oligonucleotide = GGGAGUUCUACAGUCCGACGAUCAACUUUGUGCAUCGGUUUCCCUUUGUAGCUGUUUCAAUUGGCUUUGCUGUGAAUAAAGAGAUGGAGUUUGGAAUUGUGUACAGCUGUGUGGAAGAUAAGAUGUACACCGGCAGGAAAGGGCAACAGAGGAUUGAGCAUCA; result = 0.474 ratio
Oligonucleotide = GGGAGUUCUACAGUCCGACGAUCUGUGAACUGUCUCUUGAGAUCUAAAAACAAGAUGACUUUUCCUGGCACAUAUUCCAAAGCAAAGACUUUGUUGCCUGCUGCUUCUUGUCUAAUUUACAGGGAUAUUUAAUUUUGUCAGGUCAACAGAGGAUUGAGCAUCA; result = 0.232 ratio
Oligonucleotide = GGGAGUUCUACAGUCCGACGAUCAAAGUGGACUAUGGCGAGUACAUGGAUAAAAACAAUGUGAGGCGGCAAGCAACAACAAUCAUAGCUGAUAAUAUUAUAUUUCUGAGUGACCAGACAAAAGAGAAGGAAUAGAACGGAUGACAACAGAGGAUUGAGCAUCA; result = 8.29 ratio
Oligonucleotide = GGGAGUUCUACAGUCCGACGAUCGUUGCCAGCUUCCGGUUCCGUUGGGCUCGGUUCUCUCCUGAGCUACGUGUCUCUACGUUUUAGGUGUCGGUUGGGUAAAACAUGGAUCAGGUAAUGCAGUUUGUGGAGCCCAGCCGGCAGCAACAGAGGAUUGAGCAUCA; result = 0.0893 ratio
Oligonucleotide = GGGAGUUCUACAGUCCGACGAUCCUUAAUGUUAAUAUUUUUGAAUAAAUGAAGCUAAAAUGUCUGCUUUUGGUACUACAUGCAUUAAUAAAAGGUUAAGUAAGUUUUGUUACUGAAGUACUAUUUAACAUCUCAGAAAAAAACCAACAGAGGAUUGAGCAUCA; result = 0.304 ratio
Oligonucleotide = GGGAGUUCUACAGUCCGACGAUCGUAGCUGGGACUACAGAAAUGCUGGUAAUUUCAGUCACUUGCUGAUGACUUCUGAUGACCUAGCAAAUAAUGCCACAGUUGACUGCUGAGAAGAUACUUCUGAGGACCCACGUCUAAGGUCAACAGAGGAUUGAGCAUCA; result = 0.206 ratio
Oligonucleotide = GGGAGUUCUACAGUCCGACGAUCGGAAGUACAAUGAUGGAGAUUGAUGGUGAUAAAGGCAAGCAGGGCGGGCCCACCUACUACAUAGACACCAAUGCCCUCCGCGUGCCCAGGGAGAACAUGGAGGCCAUUUCACCUCUAAAGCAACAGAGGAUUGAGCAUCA; result = 0.289 ratio
Oligonucleotide = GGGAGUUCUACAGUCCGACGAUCUUUCUAUUGCAGCAAACGAUGCUAAGAAUUAAGGAUCCUAAGAAGUCCCUGGAUUUUUAUACGAGGGUUCUUGGACUGACCCUCCUGCAGAAGCUUGACUUCCCUGCUAUGAAGUUCUCGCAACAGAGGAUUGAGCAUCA; result = 0.492 ratio
Oligonucleotide = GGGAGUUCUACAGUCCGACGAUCUAAGUUAUUUUGUACAGCUUUGUAAAUUGUAUAGCUUUUUAUAUUGCACAUUUUAUGUUGUUUGGGUAAUUUGGUUCAUUAAGUACAUAGCUAAGGUAAUGAACAUCUUUUUCAGUAAUUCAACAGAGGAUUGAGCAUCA; result = 1.29 ratio
Oligonucleotide = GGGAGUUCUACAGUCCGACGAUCCACACACUCUUCUGUGGGACCCUCAUCUUGCAGGCCCGGGCCUAUGUGGGACCGCACGUCCUGGCAGUGGUGACCCGGACAGGGUUCUGCACGGCAAAAGGGGGCCUGGUGAGCUCCAUCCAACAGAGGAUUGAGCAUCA; result = 0.0488 ratio
Oligonucleotide = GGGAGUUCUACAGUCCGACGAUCUCUUUAAAUGCACUACAACCUUUUCUGACAGUGCUUUCCCUCCCAUAGGUCCAGGUUCAAGCUCAAAGAGCAAAGGCUUUGCACGGAGCUCAAACAUCUGAUGAAGAAAGAUUUCUGAGACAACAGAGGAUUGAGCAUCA; result = 0.271 ratio

Excerpt of the above (sample 5):
Oligonucleotide = GATTGTGA; result = 0.182
Oligonucleotide = TCAAAGGA; result = 0.1
Oligonucleotide = AATGTCGG; result = 0.0135
Oligonucleotide = AGGGACGA; result = -0.125
Oligonucleotide = CGTCTGCC; result = -0.226
Oligonucleotide = GTGGAGTA; result = 0.0857
Oligonucleotide = AGGCACGG; result = -0.166
